{"data": "Measured values collected from several papers", "note": "A part holds a random share of what one study measured."}
{"data": "Sample 1", "target": "Sal-like protein 4, full length isoform B (SALL4, Homo sapiens, UniProt Q9UJQ4-2, residues 1-616)", "technique": "universal PBM", "form": "double-stranded DNA, one strand shown", "matrix": "in vitro", "concentration": "not given", "setting": "8-mer, flanks averaged, mean of replicates", "reading": "higher = stronger binding"}
{"Strand": "AGAATGCA", "E-score": 0.0701}
{"Strand": "AGGCTTTA", "E-score": 0.108}
{"Strand": "ATTCCTGC", "E-score": 0.052}
{"Strand": "AATGTCCC", "E-score": -0.051}
{"Strand": "GTGAATAA", "E-score": 0.227}
{"Strand": "AGCTCGGC", "E-score": -0.141}
{"Strand": "AGAGGAAA", "E-score": 0.0624}
{"data": "Sample 2", "target": "Histone acetyltransferase KAT6A, winged helix 2, GST fusion (KAT6A, Homo sapiens, UniProt Q92794, residues 85-181)", "technique": "protein binding microarray", "form": "double-stranded DNA, one strand shown", "matrix": "in vitro", "concentration": "not given", "setting": "8-mer, flanks averaged, mean of 2 arrays, mostly near background", "reference": "not given", "reading": "higher = stronger binding", "Construct (chain)": "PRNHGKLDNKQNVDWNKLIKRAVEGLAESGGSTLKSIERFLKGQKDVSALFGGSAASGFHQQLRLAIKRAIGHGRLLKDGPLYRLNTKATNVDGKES"}
{"Strand": "ACGCGTAC", "E-score": -0.0406}
{"Strand": "ATCAAGGG", "E-score": 0.0377}
{"Strand": "CATGAGCG", "E-score": -0.111}
{"Strand": "CTCAGTGC", "E-score": 0.0731}
{"Strand": "CTACCTCC", "E-score": 0.0541}
{"Strand": "CGCAATGA", "E-score": -0.0517}
{"data": "Sample 3", "target": "Centromere-binding protein 1, full length, N-terminal tag (CBF1, Saccharomyces cerevisiae, UniProt P17106, residues 1-351)", "technique": "protein-binding microarray", "form": "double-stranded DNA, one strand shown", "matrix": "in vitro", "concentration": "0.8 µM", "setting": "whole 60-bp probe, no competitor", "reading": "higher = stronger binding", "all sequences stand within": "… GTCTTGATTCGCTTGACGCTGCTG", "sequence of UniProt P17106 (whole entry, looked up)": "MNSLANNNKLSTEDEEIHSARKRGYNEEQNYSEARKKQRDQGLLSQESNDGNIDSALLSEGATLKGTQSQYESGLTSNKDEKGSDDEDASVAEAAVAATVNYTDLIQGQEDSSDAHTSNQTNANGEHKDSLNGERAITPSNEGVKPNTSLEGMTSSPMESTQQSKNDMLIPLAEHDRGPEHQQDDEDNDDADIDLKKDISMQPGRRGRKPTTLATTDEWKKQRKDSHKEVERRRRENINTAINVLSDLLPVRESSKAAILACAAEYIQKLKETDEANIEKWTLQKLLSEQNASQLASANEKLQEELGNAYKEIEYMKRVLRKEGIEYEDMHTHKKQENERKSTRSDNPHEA"}
{"Strand": "GAACTGTAAGTTGATTGCGTGGGACGTCTAGCGTAG", "fluorescence intensity": "501 a.u."}
{"Strand": "CTACAACACCACCACCACCAATAGTACTACCTGTTC", "fluorescence intensity": "534 a.u."}
{"Strand": "CTATAGGGATATCTGCACATGGGGCCTCGAGCATTC", "fluorescence intensity": "575 a.u."}
{"Strand": "CTATTGGACTTACTATACCTGACGGTCCACGGGTTC", "fluorescence intensity": "589 a.u."}
{"Strand": "CTATCTACCATTGGTCACGGTCTCAGTATATTTTTC", "fluorescence intensity": "1320 a.u."}
{"Strand": "CTAAGATCGCACCAGCGCGTGGGGCTCTTTCATTTC", "fluorescence intensity": "480 a.u."}
{"Strand": "GAATTTCTGAATGATCAGCTGTTTAAGTTCGAATAG", "fluorescence intensity": "910 a.u."}
{"data": "Mixed results"}
{"Substance": "PhoQ, residues 284 288 289 292 302 303 SIHLQL", "target": "PhoP, residues 12 14 15 18 19 MHTVL (Escherichia coli, UniProt P23836)", "test": "Sort-seq, measured: YFP reporter", "test system": "E. coli", "conditions": "PhoQ-PhoP variant library, added: 10 µM Mg2+", "how to read": "reference: high Mg2+ state, higher = stronger signaling", "quantity": "fold induction", "value": 13.5}
{"note": "Repeated from above (sample 1):"}
{"Strand": "AGAATGCA", "E-score": 0.0701}
{"Strand": "AGGCTTTA", "E-score": 0.108}
